Experimental data collected from several papers.
Lines come from different studies, so protocols differ. “And” joins repeats or separate records; there may be more than shown.
Target: Calcium/calmodulin-dependent protein kinase type II subunit beta (CAMK2B, Homo sapiens, UniProt Q13554)

Compound	test	setting	scale	endpoint	result
O=C=[N][Ru-4]123([n]4c5ccc(O)cc5c5c6c(c7cc(F)c[n+]1c7c54)C(=O)NC6=O)[S+]1CC[S+]2CC[S+]3CC1 (stereo not drawn)	enzyme activity	100 nM, human enzyme, with: 10 µM ATP	reference: untreated	remaining activity	63%
CC(C)=CC1OC(C)(C)C2C=C3C(=O)C(Cl)=CC(O)C3C3C(O)C4OC4C(=O)C132 (stereo not drawn)	cell-free assay, competition with immobilised ligand	10 µM	–	remaining binding	61%
CNC(=O)C[C@H](Cc1ccc(C#N)cc1)NC(=O)c1cc(-c2ccc(CN[C@H](C)c3ccc(C)cc3)o2)ccc1Cl	enzyme activity, inhibitor	1 µM	–	activity vs control	75%
C=CC(=O)N1Cc2nc(-c3cc(-c4cc(Cl)cnc4Cl)c(F)cc3F)n(-c3ccncn3)c2C1	cell-free assay, inhibitor	1 µM	–	inhibition	1.6%
C=CC(=O)Nc1cccc(-c2cnc3[nH]cc(C(=O)NC(C)(C)C)c3n2)c1	enzyme activity, inhibitor	0.1 µM	–	inhibition	1%
C=CC(=O)N1CCCC(n2c(=O)c3ncccc3n(Cc3ccc(Oc4ccccc4)cc3)c2=O)C1 (stereo not drawn)	cell-free assay, competition with immobilised ligand	1 µM	–	remaining binding	100%
O=C(Cc1ccc(OCc2ccccc2)cc1)NC1(C(=O)O)CCN(C(=O)c2ccc(-c3cccc(Cl)c3)cc2)CC1	enzyme activity, inhibitor	10 µM	–	activity vs control	96%
COc1cc(Nc2nccc(-c3cnn4nc(OC)ccc34)n2)cc(C(F)(F)F)c1	binding, competition with immobilised ligand	1 µM	–	remaining binding	100%
Cc1cccc(O[C@H]2CCC[C@@H](C(C)CNCc3ccncc3)C2)c1 (relative stereo)	enzyme activity, inhibitor	1 µM	–	inhibition	1%
CNC(=O)C1CCN(c2cc(C)c(F)cc2NC(=O)c2ccc(-c3cc(O)ccc3C)c(C)c2)CC1	binding, competition with immobilised ligand	1 µM	–	remaining binding	100%
CCN1CCN(Cc2ccc(C(=O)Nc3ccc(C)c(NCc4cnc5[nH]ccc5c4OC)c3)cc2C(F)(F)F)CC1	binding, competition with immobilised ligand	1 µM	–	remaining binding	93%
Cc1cnc2nc1Nc1cccc(c1)COC/C=C/COCc1cc(ccc1OCCN1CCOCC1)N2	binding	0.1 µM	–	remaining binding	96%
COc1c(Cl)cccc1Nc1c(-c2ccncc2C#C[C@@]2(C)CCCN2C(=O)/C=C/CN(C)C)[nH]c2c1C(=O)NCC2	cell-free assay, competition with immobilised ligand	3 µM	–	remaining binding	100%
COCC12C(=O)NC3C4(C(OC)CC1O)C1CC5(O)C(OC)C(O)C(OC(C)=O)(C1C5OC(=O)c1ccccc1)C3(O)C(OC)C24 (stereo not drawn)	kinase activity, inhibitor, ProQinase kinase profiling	25 µM	reference: control	remaining activity	83% and 102%
NC(=O)C[C@H]1CCc2sc3ncnc(O[C@H]4CC[C@H](N5CCOCC5)CC4)c3c21	enzyme activity, inhibitor	10 µM	–	inhibition	9%

Repeated from above:
Compound	test	setting	scale	endpoint	result
CNC(=O)C[C@H](Cc1ccc(C#N)cc1)NC(=O)c1cc(-c2ccc(CN[C@H](C)c3ccc(C)cc3)o2)ccc1Cl	enzyme activity, inhibitor	1 µM	–	activity vs control	75%
